{"data": "Measured values of several laboratories", "note": "Every numbered part comes from another study and shows a few of its results, in no order. Substitutions count along the parent as printed."}
{"data": "Series 1", "Molecule": "PhoQ, residues 284 288 289 292 302 303 GASLAW", "technique": "Sort-seq", "item": "YFP reporter", "sample": "E. coli", "setting": "PhoQ-PhoP variant library", "added": "10 µM Mg2+", "relative to": "high Mg2+ state", "reading": "higher = stronger signaling"}
{"target": "PhoP, residues 12 14 15 18 19 TQALL (Escherichia coli, UniProt P23836)", "fold induction": 11.1}
{"target": "PhoP, residues 12 14 15 18 19 NYFRM (Escherichia coli, UniProt P23836)", "fold induction": 9.25}
{"target": "PhoP, residues 12 14 15 18 19 QYFSL (Escherichia coli, UniProt P23836)", "fold induction": 1.76}
{"data": "Series 2", "target": "CCNB1, cyclin fold, Cln2 fusion (human)", "technique": "yeast growth competition, sequencing", "sample": "yeast", "setting": "strong parent motif", "relative to": "not given", "reading": "higher = stronger binding", "starting sequence": "INSM1 docking peptide (human); PKAIRKLHFEDEV"}
{"Change": "F9R", "normalised enrichment score": 0.138}
{"Change": "K2R", "normalised enrichment score": 2.42}
{"Change": "H8G", "normalised enrichment score": 0.679}
{"Change": "A3H", "normalised enrichment score": 1.49}
{"Change": "R5A", "normalised enrichment score": 1.02}
{"Change": "I4M", "normalised enrichment score": 1.13}
{"data": "Series 3", "target": "Fragile X messenger ribonucleoprotein 1, C-terminal low-complexity region (Fmr1, Mus musculus, UniProt P35922)", "technique": "RNA Bind-n-Seq", "form": "RNA", "sample": "in vitro", "tested at": "200 nM", "setting": "whole 134-nt RNA, ends assumed", "added": "150 mM KCl", "relative to": "input library", "reading": "higher = stronger binding", "all sequences stand within": "GGGAGUUCUACAGUCCGACGAUC … UGGAAUUCUCGGGUGUCAAGG"}
{"Sequence": "AAGUCCUGUGCUACACAUCGUAUGUACCGAAUCGGAAAGGUUUUUUUGGAAAAAGGAAAGUAUUAUGUUACGCCGUUCGGAUCUGCACUU", "log2 enrichment": -1.25}
{"Sequence": "CUGUGCUACACAUCGUAUGUACCGAAUCGGGGAAAAAGGGGAAAAAGGGGUUUUUUUGGGGAAAGUAUUAUGUUACGCCGUUCGGAUCUG", "log2 enrichment": 0.139}
{"Sequence": "AGUCCUGUGCUACACAUCGUAUGUACCGAAUCGGGUUUUUUUGGGUUUUUGGGUGGGAAAGUAUUAUGUUACGCCGUUCGGAUCUGCACU", "log2 enrichment": 0.76}
{"Sequence": "CUGUGCUACACAUCGUAUGUACCGAAUCGGGGUUUGGGGUUUUUUUGGGGAAAAAAAGGGGAAAGUAUUAUGUUACGCCGUUCGGAUCUG", "log2 enrichment": 0.0531}
{"Sequence": "UGGGAGGUGGAUUUUGUUUAUUUUUUUAGCUCAUUUCCAGGGGUGGGAUUUUUUUUUUAAUAUGUGUCAUGAAUAAAGUUGUUUUUGAAA", "log2 enrichment": 0.335}
{"Sequence": "ACCAUGCAGGUGGGCAUCUUUGGGAAGUGGGGAAAGGGGGGGAUAGGGAGGGGGGUAACACUUUGGGAACAGGUGGUCCCAGGUCGUUUC", "log2 enrichment": 0.626}
{"Sequence": "CCUGUGCUACACAUCGUAUGUACCGAAUCGGGAAAAAAAGGGAAAAAAAGGGAAAAAGGGAAAGUAUUAUGUUACGCCGUUCGGAUCUGC", "log2 enrichment": -0.86}
{"data": "Series 4", "target": "Interferon regulatory factor 7, full length, phosphomimetic (IRF7, Homo sapiens, UniProt Q92985, residues 1-503, S101K/S471D/S472D/S475D/S476D/S477D/S483D/S484D/S487D)", "technique": "protein-binding microarray", "form": "double-stranded DNA, one strand shown", "sample": "in vitro", "tested at": "250 nM", "setting": "60-bp whole probe", "added": "salmon DNA 0.4 mg/ml", "relative to": "random background probes", "reading": "higher = stronger binding", "all sequences stand within": "GCCTAGCAC … GTCTTGATTCGCTTGACGCTGCTG", "Target sequence (chain)": "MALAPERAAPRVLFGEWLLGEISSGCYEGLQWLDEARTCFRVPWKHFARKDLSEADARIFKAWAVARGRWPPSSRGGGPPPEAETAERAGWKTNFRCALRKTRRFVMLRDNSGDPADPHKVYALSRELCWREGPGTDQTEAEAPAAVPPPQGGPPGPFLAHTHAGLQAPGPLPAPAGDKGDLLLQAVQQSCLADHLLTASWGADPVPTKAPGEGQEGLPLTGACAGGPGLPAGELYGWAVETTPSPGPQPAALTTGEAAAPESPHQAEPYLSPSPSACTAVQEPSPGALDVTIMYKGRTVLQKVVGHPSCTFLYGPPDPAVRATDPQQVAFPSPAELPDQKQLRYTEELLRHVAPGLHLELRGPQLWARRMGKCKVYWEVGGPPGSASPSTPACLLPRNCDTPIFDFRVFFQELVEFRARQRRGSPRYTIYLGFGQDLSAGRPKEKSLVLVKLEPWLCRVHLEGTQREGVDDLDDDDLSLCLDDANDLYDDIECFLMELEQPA"}
{"Sequence": "TTAGGACTGGACTTTCCGTTAGTGCTA", "log fluorescence": "-0.301 z-score"}
{"Sequence": "GACGAACTGGGGGCTGGAGACGTGCTA", "log fluorescence": "0.234 z-score"}
{"Sequence": "CTGTTTTTGCTTTCCTTCATGTGCTAG", "log fluorescence": "3.02 z-score"}
{"Sequence": "TCACTTTCCTTTATGTCACTGTGCTAG", "log fluorescence": "2.43 z-score"}
{"Sequence": "TCATCTCTACATGTGTTACTGTGCTAG", "log fluorescence": "0.555 z-score"}
{"Sequence": "TTAGGTAGCGGTCTCGGTTAGTGCTAG", "log fluorescence": "0.843 z-score"}
{"Sequence": "TTAGAACTGGGGACTGGATGAGTGCTA", "log fluorescence": "-0.725 z-score"}
{"note": "Repeated from above (series 4):"}
{"Sequence": "CTGTTTTTGCTTTCCTTCATGTGCTAG", "log fluorescence": "3.02 z-score"}
{"Sequence": "TCACTTTCCTTTATGTCACTGTGCTAG", "log fluorescence": "2.43 z-score"}
